# Measured values from different studies.
# Lines come from different studies, so protocols differ. ± gives the spread as reported.
# FLT3: Receptor-type tyrosine-protein kinase FLT3 (FLT3, Homo sapiens, UniProt P36888)
# TRPM8: Transient receptor potential cation channel subfamily M member 8 (TRPM8, Homo sapiens, UniProt Q7Z2W7)
# Chain of UniProt Q7Z2W7 (whole entry, looked up): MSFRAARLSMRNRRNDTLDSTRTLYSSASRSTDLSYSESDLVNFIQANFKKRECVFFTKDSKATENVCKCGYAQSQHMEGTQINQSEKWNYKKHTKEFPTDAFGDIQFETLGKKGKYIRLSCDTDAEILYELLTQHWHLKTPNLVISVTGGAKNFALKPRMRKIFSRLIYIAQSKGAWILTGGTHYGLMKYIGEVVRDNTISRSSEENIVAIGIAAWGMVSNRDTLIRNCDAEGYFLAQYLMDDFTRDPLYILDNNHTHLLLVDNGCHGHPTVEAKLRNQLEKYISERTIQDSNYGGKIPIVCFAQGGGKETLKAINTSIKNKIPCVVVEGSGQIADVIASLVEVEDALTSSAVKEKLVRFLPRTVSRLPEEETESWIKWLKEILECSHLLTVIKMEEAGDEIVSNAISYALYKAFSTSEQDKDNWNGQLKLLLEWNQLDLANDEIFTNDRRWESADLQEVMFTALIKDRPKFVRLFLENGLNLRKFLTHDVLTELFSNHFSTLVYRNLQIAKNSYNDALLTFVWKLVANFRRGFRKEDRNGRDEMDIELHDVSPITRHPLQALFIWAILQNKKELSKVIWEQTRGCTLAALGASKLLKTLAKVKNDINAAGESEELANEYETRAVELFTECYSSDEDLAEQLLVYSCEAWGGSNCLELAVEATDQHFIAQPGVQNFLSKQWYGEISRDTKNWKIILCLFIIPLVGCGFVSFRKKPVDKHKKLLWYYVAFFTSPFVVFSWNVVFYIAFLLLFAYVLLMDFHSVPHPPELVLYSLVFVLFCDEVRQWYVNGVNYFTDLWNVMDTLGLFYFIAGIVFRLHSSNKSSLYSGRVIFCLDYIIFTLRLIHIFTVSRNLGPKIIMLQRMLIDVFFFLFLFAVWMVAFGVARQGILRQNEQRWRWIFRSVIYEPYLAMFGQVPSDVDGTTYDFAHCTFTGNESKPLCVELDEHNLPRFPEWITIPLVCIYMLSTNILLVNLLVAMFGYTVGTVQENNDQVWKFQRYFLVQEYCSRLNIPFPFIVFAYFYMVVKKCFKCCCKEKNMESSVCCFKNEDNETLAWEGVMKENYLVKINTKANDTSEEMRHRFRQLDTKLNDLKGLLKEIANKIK
# LCK: Tyrosine-protein kinase Lck (LCK, Homo sapiens, UniProt P06239)
# Chain of UniProt P06239 (whole entry, looked up): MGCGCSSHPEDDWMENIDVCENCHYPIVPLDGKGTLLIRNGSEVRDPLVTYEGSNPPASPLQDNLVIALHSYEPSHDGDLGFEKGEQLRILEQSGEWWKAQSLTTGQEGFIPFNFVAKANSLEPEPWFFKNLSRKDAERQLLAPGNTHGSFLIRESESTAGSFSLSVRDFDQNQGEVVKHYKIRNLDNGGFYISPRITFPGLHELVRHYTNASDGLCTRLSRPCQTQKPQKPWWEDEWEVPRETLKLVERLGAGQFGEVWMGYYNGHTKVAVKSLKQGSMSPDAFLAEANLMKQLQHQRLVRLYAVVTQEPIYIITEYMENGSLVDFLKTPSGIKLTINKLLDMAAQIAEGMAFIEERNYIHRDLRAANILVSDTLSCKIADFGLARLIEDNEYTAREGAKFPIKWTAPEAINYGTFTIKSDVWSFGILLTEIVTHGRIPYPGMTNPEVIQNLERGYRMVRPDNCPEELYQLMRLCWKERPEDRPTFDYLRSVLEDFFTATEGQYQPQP
# Chain of UniProt O75460 (whole entry, looked up): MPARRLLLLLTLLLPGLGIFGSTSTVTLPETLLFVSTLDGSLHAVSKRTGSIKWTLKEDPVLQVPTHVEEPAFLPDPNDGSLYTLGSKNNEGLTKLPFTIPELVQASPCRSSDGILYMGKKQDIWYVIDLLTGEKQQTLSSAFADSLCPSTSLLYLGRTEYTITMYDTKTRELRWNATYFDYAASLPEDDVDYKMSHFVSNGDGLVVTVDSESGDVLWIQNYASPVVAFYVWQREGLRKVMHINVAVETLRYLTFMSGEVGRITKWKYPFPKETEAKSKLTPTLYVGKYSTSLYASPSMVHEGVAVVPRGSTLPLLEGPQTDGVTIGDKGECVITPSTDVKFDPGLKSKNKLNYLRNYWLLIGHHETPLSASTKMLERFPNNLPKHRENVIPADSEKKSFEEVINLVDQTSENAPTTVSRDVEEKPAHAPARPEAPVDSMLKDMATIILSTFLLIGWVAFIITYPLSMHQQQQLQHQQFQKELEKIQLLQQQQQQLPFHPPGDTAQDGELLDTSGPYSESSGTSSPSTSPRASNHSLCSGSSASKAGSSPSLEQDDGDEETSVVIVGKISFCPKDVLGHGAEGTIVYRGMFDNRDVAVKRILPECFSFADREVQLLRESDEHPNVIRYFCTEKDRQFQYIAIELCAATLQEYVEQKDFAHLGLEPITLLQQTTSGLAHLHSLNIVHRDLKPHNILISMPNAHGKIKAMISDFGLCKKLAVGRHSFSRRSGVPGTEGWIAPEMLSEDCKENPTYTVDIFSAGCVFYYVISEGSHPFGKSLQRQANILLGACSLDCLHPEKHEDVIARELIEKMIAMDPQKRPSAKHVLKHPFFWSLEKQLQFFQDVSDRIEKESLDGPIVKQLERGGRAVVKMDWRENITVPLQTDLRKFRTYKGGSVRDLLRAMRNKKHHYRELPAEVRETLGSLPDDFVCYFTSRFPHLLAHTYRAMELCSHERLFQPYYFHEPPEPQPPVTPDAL
# Chain of UniProt Q8N5S9 (whole entry, looked up): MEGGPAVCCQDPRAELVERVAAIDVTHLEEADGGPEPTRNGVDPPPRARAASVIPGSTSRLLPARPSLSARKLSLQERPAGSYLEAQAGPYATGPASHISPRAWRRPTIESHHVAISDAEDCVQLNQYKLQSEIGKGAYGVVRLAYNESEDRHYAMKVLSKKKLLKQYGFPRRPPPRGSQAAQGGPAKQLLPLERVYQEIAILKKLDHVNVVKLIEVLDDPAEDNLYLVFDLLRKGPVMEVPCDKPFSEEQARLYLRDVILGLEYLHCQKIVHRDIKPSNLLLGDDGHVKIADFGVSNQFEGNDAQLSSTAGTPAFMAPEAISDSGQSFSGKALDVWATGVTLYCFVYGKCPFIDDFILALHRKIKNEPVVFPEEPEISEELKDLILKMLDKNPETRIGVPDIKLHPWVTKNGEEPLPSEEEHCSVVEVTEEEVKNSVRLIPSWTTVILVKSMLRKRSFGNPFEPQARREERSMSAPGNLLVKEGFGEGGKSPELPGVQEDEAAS
# Chain of UniProt Q5HHB9 (whole entry, looked up): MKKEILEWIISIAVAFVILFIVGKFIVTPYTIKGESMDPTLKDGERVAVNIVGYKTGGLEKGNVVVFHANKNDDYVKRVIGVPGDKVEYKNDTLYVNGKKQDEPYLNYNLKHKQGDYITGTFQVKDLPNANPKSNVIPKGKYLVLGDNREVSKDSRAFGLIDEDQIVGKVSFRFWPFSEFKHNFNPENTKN
# Chain of UniProt Q15418 (whole entry, looked up): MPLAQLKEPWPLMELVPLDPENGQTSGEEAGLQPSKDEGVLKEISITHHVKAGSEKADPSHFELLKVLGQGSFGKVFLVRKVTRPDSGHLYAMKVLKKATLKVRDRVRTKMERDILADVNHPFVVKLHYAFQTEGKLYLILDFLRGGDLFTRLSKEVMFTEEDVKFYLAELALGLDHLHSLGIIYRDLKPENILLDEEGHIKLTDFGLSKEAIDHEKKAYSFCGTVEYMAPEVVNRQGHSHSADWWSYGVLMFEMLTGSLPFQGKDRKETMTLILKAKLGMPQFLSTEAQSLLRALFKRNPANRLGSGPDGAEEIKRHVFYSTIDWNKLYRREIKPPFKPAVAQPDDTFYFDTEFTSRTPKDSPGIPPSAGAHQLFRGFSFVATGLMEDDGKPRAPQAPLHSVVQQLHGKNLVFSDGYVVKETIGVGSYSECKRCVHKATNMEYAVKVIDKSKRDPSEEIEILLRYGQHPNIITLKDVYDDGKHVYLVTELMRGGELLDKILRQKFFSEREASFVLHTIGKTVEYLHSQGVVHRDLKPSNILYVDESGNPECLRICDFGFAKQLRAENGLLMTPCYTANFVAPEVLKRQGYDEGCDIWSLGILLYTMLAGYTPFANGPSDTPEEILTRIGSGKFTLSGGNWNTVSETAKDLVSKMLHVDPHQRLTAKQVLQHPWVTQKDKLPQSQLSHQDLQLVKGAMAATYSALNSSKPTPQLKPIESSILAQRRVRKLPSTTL
SMILES,target,assay,test system,conditions,scale,remaining activity
Cc1cc(Nc2cc(N3CCN(C)CC3)nc(Sc3ccc(NC(=O)C4CC4)cc3)n2)[nH]n1,FLT3,kinase activity,,0.03 µM,baseline: control,51%
O=C1NC(=O)c2c1c1c3ccccc3[nH]c1c1[nH]c3cc(Br)ccc3c21,TRPM8,antagonist,HEK293,5 µM,baseline: control,96.4 ± 11%
COc1cc(-c2cncc3c2CN(C)Cc2cc(N4CCNCC4)ccc2-3)cc(OC)c1OC,"Calcium/calmodulin-dependent protein kinase kinase 1 (CAMKK1, Homo sapiens, UniProt Q8N5S9)",kinase activity,,"1 µM, human enzyme, with: ATP 10 µM",baseline: DMSO control,107%
O=C(NC1CCC1)c1ccc2nc(-c3cccc(NS(=O)(=O)NCCN4CCCCC4)c3)cn2c1,"Serine/threonine-protein kinase/endoribonuclease IRE1 (ERN1, Homo sapiens, UniProt O75460)",enzyme activity,,10 µM,,100%
COc1cc(Nc2ncc3c(n2)-c2ccc(Cl)cc2C(c2c(F)cccc2OC)=NC3)ccc1C(=O)O,AKT1,kinase activity,,1 µM,,106%
Cc1nc2cc3nc(-c4cccs4)cnc3cc2n1C,TRPM8,antagonist,HEK293,5 µM,baseline: control,82.7 ± 8.2%
COc1ccc(F)cc1C(=O)NCc1ccc(-c2nn([C@@H](C)C(F)(F)F)c(N)c2C(N)=O)cc1,LCK,"kinase activity, inhibitor, HotSpot radiometric",,"100 nM, with: ATP 10 µM",,76.7 ± 0.1%
CNc1ncc2c(/C=C/C(=O)N3CCC(OC)CC3)nn(Cc3cccc(C(F)(F)F)c3)c2n1,"Ribosomal protein S6 kinase alpha-1 (RPS6KA1, Homo sapiens, UniProt Q15418)","kinase activity, inhibitor",,1 µM,baseline: untreated control,97%
O=C(O)/C=C/c1cc(Br)c(Br)c(Br)c1Br,TRPM8,antagonist,HEK293,5 µM,baseline: control,112 ± 8.89%
O=C(Nc1ccc(C(=O)Nc2ccccc2)cc1)Nc1ccc(Cl)c(C(F)(F)F)c1,"Signal peptidase IB (spsB, Staphylococcus aureus, UniProt Q5HHB9)","peptidase activity, activator, FRET peptide cleavage","Staphylococcus aureus, membranes",100 µM,baseline: DMSO,99.4%
O=C1Nc2ccccc2/C1=C\c1c(Cl)[nH]c2ccccc12,TRPM8,antagonist,HEK293,5 µM,baseline: control,81.9 ± 16.9%
COc1cc(F)ccc1-c1ncnc(Nc2cccc(C[S@](C)(=N)=O)c2)n1,FLT3,kinase activity,,"10 µM, with: 10 µM ATP",,36%
C=CC(=O)N1CCC[C@@H](n2nc(-c3ccc(Oc4ccccc4)cc3)c3c(N)ncnc32)C1,LCK,,,0.1 µM,,103%

# Some of these lines once more:
SMILES,target,assay,test system,conditions,scale,remaining activity
O=C(Nc1ccc(C(=O)Nc2ccccc2)cc1)Nc1ccc(Cl)c(C(F)(F)F)c1,"Signal peptidase IB (spsB, Staphylococcus aureus, UniProt Q5HHB9)","peptidase activity, activator, FRET peptide cleavage","Staphylococcus aureus, membranes",100 µM,baseline: DMSO,99.4%
O=C1Nc2ccccc2/C1=C\c1c(Cl)[nH]c2ccccc12,TRPM8,antagonist,HEK293,5 µM,baseline: control,81.9 ± 16.9%
